Measurements collected from several papers.
Numbered parts are unrelated; each lists some results of a single study.

Block 1
Target: Phosphate system positive regulatory protein PHO4, full length, GST-tagged (PHO4, Saccharomyces cerevisiae, UniProt P07270, residues 1-312)
Method: competition protein-binding microarray
Molecule type: double-stranded DNA, one strand shown
Medium: in vitro
Tested at: 2 µM
Setting: whole 60-bp probe, lowest competitor level
Added: Cbf1 competitor, 0.05 µM
Reading: higher = stronger binding
Quantity: fluorescence intensity
Shared flanks, not repeated: … GTCTTGATTCGCTTGACGCTGCTG
Construct (chain): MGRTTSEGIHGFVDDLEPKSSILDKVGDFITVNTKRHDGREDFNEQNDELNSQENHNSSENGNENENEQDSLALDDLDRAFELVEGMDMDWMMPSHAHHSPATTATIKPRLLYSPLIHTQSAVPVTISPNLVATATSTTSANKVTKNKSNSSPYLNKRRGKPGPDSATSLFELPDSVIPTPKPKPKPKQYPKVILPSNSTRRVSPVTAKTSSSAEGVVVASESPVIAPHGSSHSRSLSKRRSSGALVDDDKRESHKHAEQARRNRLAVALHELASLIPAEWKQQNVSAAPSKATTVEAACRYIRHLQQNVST
GTCTTGTCTCATTTTCACGTGTATTTCCCCACTTCA: 11800 a.u.
TGCAAGTTAAAGCGGTCCGTGCCAGATTGGACGAGT: 7430 a.u.
AAAGCGGTAATTTGGCCCGTGGGTGCAGATATCTAT: 9820 a.u.
TATGTACGCCTTTTCCGCGTGCGATGGTCTTTACCG: 8500 a.u.
TTCTGCAGGGCCCGGCCCGGGTCGTCCGGAAAAAGA: 2310 a.u.
CTTTCCCGATCTTGGCCAGTGGGTGTAGCACATTTG: 4400 a.u.
CTTCTGTAAATTTTTCACGTGTTGTGAAGCGCCCCG: 13000 a.u.
CTTCCTTTGTCCTGGTAGGTGTGAGCTCTTGAGAGT: 5550 a.u.
GAAGAACAAATTTTCCACATGCTTGTGCCTGCTTTA: 7810 a.u.
CTTTCCCGATCTTCGCACGTGTTTTTAGCACATTTG: 19400 a.u.
CGTCCTAGTGATTGTCACCGTACTTCCATGAGGAAG: 4860 a.u.
AAATTACTAAGTTGCACAGTGGGTGACGCCGTATGA: 4430 a.u.
AACACACAGGGAAAGCACGATAAAAGGATACATAAG: 7230 a.u.
TGCGCAACAACTTGTCACGTGACTTTATGTCTAGAA: 11800 a.u.
CTTTCCCGATCTTGCGTTGTGGGTGTAGCACATTTG: 5810 a.u.
AGATGTAACCCAACCGTTGTGACGGTCCAAGGTACC: 3230 a.u.
GTCAACCGATTGGATCAGGTGAGGAAGTACTCAGCG: 2950 a.u.
AAATTACTAAGTTGTCACGATACTTACCCCGTATGA: 5330 a.u.
CTAACGAAGGTTTGTCACAGTACTTACAAGCCAAGT: 3540 a.u.
CACTGTAGATGAACACACACTAAACGACAATAAGAC: 6790 a.u.
CTTCTGTAAATTTGACTGGTGGGTGGACGCGCCCCG: 4310 a.u.

Block 2
Target: Prothrombin, mature alpha-thrombin (F2, Homo sapiens, UniProt P00734)
Method: aptamer microarray, sandwich
Molecule type: DNA with 2'F-ANA
Medium: in vitro
Tested at: 200 nM
Setting: whole 15-mer aptamer, many near background
Added: Cy3 exosite-II aptamer, 400 nM
Reading: higher = stronger binding
Quantity: mean fluorescence intensity
Strand: GGTTGGTGTGGTTGG
2'F-ANA at 1 3 4 8 9 11 12 13 14: 70.4 a.u.
2'F-ANA at 1 3 7 10 11 12 14 15: 61.7 a.u.
2'F-ANA at 1 2 4 5 6 8 9 10 12 14: 51.6 a.u.
2'F-ANA at 4 5 8 11 14 15: 44.1 a.u.
2'F-ANA at 1 2 5 12 13 15: 77.2 a.u.
2'F-ANA at 2 3 7 11: 883 a.u.
2'F-ANA at 1 2 10 11 12 13 15: 67.8 a.u.
2'F-ANA at 2 3 4 9 14 15: 278 a.u.
2'F-ANA at 2 7 11: 431 a.u.
2'F-ANA at 2 6 7 10 12 15: 163 a.u.
2'F-ANA at 2 3 7 11 13: 751 a.u.
2'F-ANA at 2 3 6 8 10 11 12: 350 a.u.
2'F-ANA at 2 3 5 6 11 12 14: 52.1 a.u.
2'F-ANA at 1 3 4 5 6 8 9 10 13: 65.3 a.u.
2'F-ANA at 1 2 3 5 6 7 8 15: 67.4 a.u.
2'F-ANA at 1 4 5 6 7 8 10 11 12 13 14: 52.4 a.u.
2'F-ANA at 1 3 6 10 11 12 13: 95.5 a.u.
2'F-ANA at 1 2 3 6 9 10 12 14 15: 51.4 a.u.
2'F-ANA at 1 2 5 6 8 9 10 11 13: 53.9 a.u.
2'F-ANA at 1 2 4 5 7 10 11 13 15: 48.4 a.u.

Block 3
Target: RNA binding protein fox-1 homolog 2, RRM domain, GST-SBP tag (RBFOX2, Homo sapiens, UniProt O43251-10, residues 100-194)
Method: RNA Bind-n-Seq
Molecule type: RNA
Medium: in vitro
Tested at: 365 nM
Setting: natural RNA segment, single round, ends assumed
Relative to: no-protein control
Reading: higher = stronger binding
Quantity: RBNS enrichment (R)
Shared flanks, not repeated: GGGAGUUCUACAGUCCGACGAUC … UGGAAUUCUCGGGUGCCAA
Construct (chain): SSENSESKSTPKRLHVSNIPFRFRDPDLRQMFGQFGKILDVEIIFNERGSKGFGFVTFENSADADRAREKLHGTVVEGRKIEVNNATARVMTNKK
ACCGGCCCGCCUCCAUCCAAAAUCACGCUCGCGUGCUUCGGAAGCAUCCGGGUCACUCCUUCUCCGCUUUUUCUUGCAGAUGGGCCUAGGCCGGUGUCGGUUCUGUUUCU: 0.263
AGAAAGAGCUCAAUUAUAGUAUUAACACCUUAAAGCCAAAACAUUUGUUCAACACAAACUACCAUCACACCUCUGACUUGAUAUUAUCAUGAGAAUGUGGAUGUACAAGU: 0.762
GCUUUUCAUUCUGCACAGUCCCAGGUCCCAGCUCCCCUCUUAUGGUUUCUGUCAUAAUGUGCUUUAUCUGAUUGACUCCAAACAUCCCGAAAUGUCACCUGCAGAUUUCU: 0.372
UAUUCUCUAAAGGGCUCUUGUCUGUUCAUUCAUCUCCCAUUCGUUCACUUAGUCAACAAGUGAUAAGUAAGUAACUUUCAUGUGCUAGGUGCUGUUAGACACAGAAGGUA: 0.525
ACAGAGACAGAUUCCAAGACUGGAAACUUCAAUUACAUCCAGAGGCAGAGAAACCUUUCCUCGACCACUCUUUAUUGAGGUACCCUGGUCACACUGAUGGCAGGACACAC: 0.25
AAUAAUUAUUAAGCUGUGUGAUAAUUUCUGCUUUCAGGACACUCAUCCAUUAUCUUGGCUGUGAGCUCCUUGGGUACGGGUACCUUGUAUGUUUACUUUUAUAUCCCUAG: 2.66
CUUGCUUGUCUUUAAAUCUUCAAUAUGAAGGACUAUUAAUUCCAAGAUUAAAAGUUCAUAUAUAGGCUAAAGAUGUAACUAGGCCAUUUGUAUUUGUAUUCCCUUUUAUU: 0.323
AACAAAUGCAAAUUUUCCCCGUUUGCCCUACGCCCCUUUUGGUACACCUAGAGGUUGAUUUCCUUUUUCAUCGAUGGUACUAUUUCUUAGUGUUUUAAAUUGGAACAUAU: 0.385
ACACUAUGCUUUUGGGUGUUAGACUGAAAUAUUUUAAGAGUAUUUAACCUUUCCAGUAUUCUGUUUCACGCUUAGAUGGAAAUGUAUCUUAUGAAUAGAGACAUAUUAAA: 0.574
AGGGAAAGGGGACUUGUGGUAGUGGACCAUACCUGGGGACCAAAAGAGACCCACUGUAAUUGAUGCAUUGUGGCCCCUGAUCUUCCCUGUCUCACACUUCUUUUCUCCCA: 1.35
AUUUAGGGGACAAACUCCAUCCAGGUUGACUCUCUCUGGAAUGCGGUAAUAAGAGCUGGCAAGUAAGGCUCAGAGAGAAGCAACCAACUGGAGUUAAUUGCCCAUUUGGG: 2.72
UCAAGGUUAACCUCUUUAGAAAAGAUUAGUAAAGGAGAUCCCGAAUGAUAGAAGAUAGAAAGACUAUUGCCUAGAAAUAUGAGACUGAGUUUUGAAACAGAAACCAGUAC: 0.429

Block 4
Target: Histone acetyltransferase KAT6A, both winged helices, GST fusion (KAT6A, Homo sapiens, UniProt Q92794, residues 1-181)
Method: protein binding microarray
Molecule type: double-stranded DNA, one strand shown
Medium: in vitro
Tested at: not given
Setting: 8-mer, flanks averaged, mean of 2 arrays, mostly near background
Relative to: not given
Reading: higher = stronger binding
Quantity: E-score
Target sequence (chain): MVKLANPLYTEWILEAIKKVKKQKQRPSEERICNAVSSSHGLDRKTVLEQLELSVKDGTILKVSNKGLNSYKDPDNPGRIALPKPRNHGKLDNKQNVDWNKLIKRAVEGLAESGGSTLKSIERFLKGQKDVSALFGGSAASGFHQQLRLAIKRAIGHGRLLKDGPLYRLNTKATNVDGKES
CCCCAGTC: -0.238
AAACACCA: -0.142
CAGAAGAG: -0.197
ACACTTTG: -0.154
ATCCCCTA: -0.258
GCATGTAC: -0.0578
GGTGGTAA: -0.171
CATCCAGC: 0.034
ACTATAAT: -0.0477
ACCCTAAC: -0.138
CATTGAGA: 0.0794
ACACACAC: -0.0504
ATCCGATC: 0.0512
ATAGGGCC: -0.125
AAAGGAAA: -0.108
CGCTACCC: 0.136
TAAGCCTA: -0.0149
ACGCTGAG: 0.101
CCGACCAA: 0.0201
GCCCTTAC: 0.0525
CATGCCGG: 0.242
GCACGCGA: 0.22

Excerpt of the above (block 1):
CGTCCTAGTGATTGTCACCGTACTTCCATGAGGAAG: 4860 a.u.
CTTTCCCGATCTTGCGTTGTGGGTGTAGCACATTTG: 5810 a.u.
TATGTACGCCTTTTCCGCGTGCGATGGTCTTTACCG: 8500 a.u.
AAAGCGGTAATTTGGCCCGTGGGTGCAGATATCTAT: 9820 a.u.
AGATGTAACCCAACCGTTGTGACGGTCCAAGGTACC: 3230 a.u.
CTTCTGTAAATTTTTCACGTGTTGTGAAGCGCCCCG: 13000 a.u.
CACTGTAGATGAACACACACTAAACGACAATAAGAC: 6790 a.u.
GTCTTGTCTCATTTTCACGTGTATTTCCCCACTTCA: 11800 a.u.
CTAACGAAGGTTTGTCACAGTACTTACAAGCCAAGT: 3540 a.u.
